Published values from different studies.
A part holds a random share of what one study measured. Changes are numbered by the printed parent chain.

Set 1
Target: CCNB3, cyclin fold, Cln2 fusion (human)
Technique: yeast growth competition, sequencing
Medium: yeast
Setting: weak parent motif
Reference: not given
Direction: higher = stronger binding
Starting sequence: CDC6 docking peptide (human); TLKGRRLVFDNQL
Substitution	normalised enrichment score
TMKGRRLVFDNQL [L2M]	0.158
TLKGSRLVFDNQL [R5S]	-0.59
TLKGARAVFDNQL [R5A L7A]	0.241
TLKGRRLVFDNQW [L13W]	0.72
TLKGRRLVFDNQD [L13D]	0.257
TLKGRRLVFANQL [D10A]	-0.124
TLKYRRLVFDNQL [G4Y]	-0.348
TLKGRRLVFDNQT [L13T]	-0.33
TLKGRRKVFDNQL [L7K]	0.576

Set 2
Target: Histone acetyltransferase KAT6A, winged helix 1, GST fusion (KAT6A, Homo sapiens, UniProt Q92794, residues 1-85)
Technique: protein binding microarray
Molecule type: double-stranded DNA, one strand shown
Medium: in vitro
Tested at: not given
Setting: 8-mer, flanks averaged, mean of 2 arrays, mostly near background
Reference: not given
Direction: higher = stronger binding
Target sequence (chain): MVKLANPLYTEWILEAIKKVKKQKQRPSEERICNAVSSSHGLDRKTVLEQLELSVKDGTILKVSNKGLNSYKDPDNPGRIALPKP
Oligonucleotide	E-score
CAACGCAA	0.0599
GAGCGACC	0.0942
CTCACAAA	0.000275
AGTATCCA	-0.203
AATTCGGG	0.0311
GGACGTAC	0.0278
AATGCTAC	-0.127
GTCTTTGA	-0.05
CTCATTTC	-0.201
AACAGCGT	0.054
GCACAAGC	-0.0509

Set 3
Target: Sal-like protein 4, full length isoform A (SALL4, Homo sapiens, UniProt Q9UJQ4, residues 1-1053)
UniProt Q9UJQ4, sequence (whole entry, looked up): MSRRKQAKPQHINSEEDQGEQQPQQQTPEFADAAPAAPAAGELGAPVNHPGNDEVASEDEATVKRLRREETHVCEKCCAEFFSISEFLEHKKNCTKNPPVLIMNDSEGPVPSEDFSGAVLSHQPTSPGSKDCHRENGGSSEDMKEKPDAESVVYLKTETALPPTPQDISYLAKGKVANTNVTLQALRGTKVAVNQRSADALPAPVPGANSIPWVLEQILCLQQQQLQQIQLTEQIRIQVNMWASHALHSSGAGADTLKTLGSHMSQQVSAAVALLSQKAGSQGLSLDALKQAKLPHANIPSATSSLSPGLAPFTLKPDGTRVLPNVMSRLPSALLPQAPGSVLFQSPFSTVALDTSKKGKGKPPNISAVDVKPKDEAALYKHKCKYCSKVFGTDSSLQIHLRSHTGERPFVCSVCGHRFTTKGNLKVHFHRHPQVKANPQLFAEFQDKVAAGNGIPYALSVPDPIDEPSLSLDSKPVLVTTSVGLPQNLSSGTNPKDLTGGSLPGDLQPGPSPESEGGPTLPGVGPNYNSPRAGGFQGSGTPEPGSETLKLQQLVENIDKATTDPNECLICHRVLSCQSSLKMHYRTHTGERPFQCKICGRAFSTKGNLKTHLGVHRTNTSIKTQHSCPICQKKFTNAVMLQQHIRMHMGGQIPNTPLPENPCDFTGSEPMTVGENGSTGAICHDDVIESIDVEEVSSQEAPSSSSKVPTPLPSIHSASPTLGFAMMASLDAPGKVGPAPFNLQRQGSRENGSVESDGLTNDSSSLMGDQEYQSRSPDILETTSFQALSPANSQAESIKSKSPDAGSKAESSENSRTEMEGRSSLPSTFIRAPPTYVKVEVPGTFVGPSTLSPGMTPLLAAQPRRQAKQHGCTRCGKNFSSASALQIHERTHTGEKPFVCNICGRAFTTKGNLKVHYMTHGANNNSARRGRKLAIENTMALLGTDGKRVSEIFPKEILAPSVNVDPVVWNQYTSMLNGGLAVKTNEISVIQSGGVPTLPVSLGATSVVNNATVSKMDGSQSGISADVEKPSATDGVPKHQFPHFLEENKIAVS
Technique: universal PBM
Molecule type: double-stranded DNA, one strand shown
Medium: in vitro
Tested at: 600 nM
Setting: 8-mer, flanks averaged, mean of replicates
Direction: higher = stronger binding
Oligonucleotide	E-score
CTCAGGCA	-0.0763
AACGAGTT	0.0136
CGTACAGA	0.0318
CTACGAGC	-0.194
CTCATGAG	-0.0329
AGATCTTG	0.0561
GCCGTCAA	-0.245
GCGTTGTA	0.0975
ACTTAAGT	0.0638

Other studies, line by line
Molecule	target	assay	system	conditions	scale	quantity	result
PhoQ, residues 284 288 289 292 302 303 SIHLQL	PhoP, residues 12 14 15 18 19 LHHSG (Escherichia coli, UniProt P23836)	Sort-seq, refers to: YFP reporter	E. coli	PhoQ-PhoP variant library, added: 10 µM Mg2+	reference: high Mg2+ state, higher = stronger signaling	fold induction	14.5

Repeated from above (set 2):
Oligonucleotide	E-score
AATTCGGG	0.0311
AGTATCCA	-0.203
CAACGCAA	0.0599
GCACAAGC	-0.0509
